Assay results gathered from unrelated publications.
A part holds a random share of what one study measured.

Series 1 — method: competition protein-binding microarray; form: double-stranded DNA, one strand shown; medium: in vitro; tested at: 2 µM; added: Pho4 competitor, 0.05 µM; reading: higher = stronger binding; endpoint: fluorescence intensity
Target: Centromere-binding protein 1, full length, His-tagged (CBF1, Saccharomyces cerevisiae, UniProt P17106, residues 1-351)
Sequence of UniProt P17106 (whole entry, looked up): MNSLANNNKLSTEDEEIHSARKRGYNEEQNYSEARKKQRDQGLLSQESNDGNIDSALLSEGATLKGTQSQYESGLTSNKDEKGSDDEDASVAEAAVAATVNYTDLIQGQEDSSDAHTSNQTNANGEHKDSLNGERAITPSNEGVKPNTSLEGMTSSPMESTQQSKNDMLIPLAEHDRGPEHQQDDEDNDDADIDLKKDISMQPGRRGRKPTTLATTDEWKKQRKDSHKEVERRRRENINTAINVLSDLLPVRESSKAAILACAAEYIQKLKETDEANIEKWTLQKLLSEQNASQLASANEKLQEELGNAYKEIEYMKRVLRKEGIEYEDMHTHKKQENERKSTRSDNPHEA
Setting: whole 60-bp probe, lowest competitor level
TGCGCAACAACTTGTCACCTCACTTTATGTCTAGAAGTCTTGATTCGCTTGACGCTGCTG: 63.3 a.u.
CCTTGTCCAATTCAACACGCTCGATGAAAAAAATAAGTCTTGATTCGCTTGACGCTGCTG: 84.3 a.u.
CTTCTGTAAATTTGTCTTGTGGGTGGACGCGCCCCGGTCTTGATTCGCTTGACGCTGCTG: 85 a.u.
TCGTCTGGGTTGGGACCGATGATAATAACGTAGTTAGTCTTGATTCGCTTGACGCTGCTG: 56.7 a.u.
CTTCTGTAAATTTGTTCCGTGGGTGGACGCGCCCCGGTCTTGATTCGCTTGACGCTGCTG: 73.6 a.u.
GATAATGACACACAGCACGCAAGTACAAGTGTCAATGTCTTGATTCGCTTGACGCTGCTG: 66.3 a.u.
TGCACTTATTATTACTACGTGGTGAATTTTCTCTTTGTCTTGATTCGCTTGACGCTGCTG: 82.4 a.u.
ACTTCATTCGGTGCTTCCGTGACGGGTTCAACGGCTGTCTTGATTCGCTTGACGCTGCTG: 77.8 a.u.

Series 2 — method: aptamer microarray, sandwich; form: DNA with 2'F-ANA; medium: in vitro; tested at: 200 nM; added: Cy3 exosite-II aptamer, 400 nM; reading: higher = stronger binding; endpoint: mean fluorescence intensity; sequence: GGTTGGTGTGGTTGG
Target: Prothrombin, mature alpha-thrombin (F2, Homo sapiens, UniProt P00734)
Setting: whole 15-mer aptamer, many near background
2'F-ANA at 1 2 4 5 10 12: 47.4 a.u.
2'F-ANA at 3 9 12 15: 1420 a.u.
2'F-ANA at 1 6 8 10 13 14 15: 49.4 a.u.
2'F-ANA at 1 3 5 8 9 10 12 13: 46.4 a.u.
2'F-ANA at 1 2 11 13 15: 119 a.u.
2'F-ANA at 1 2 6 7 8 9 11 12 13 14: 68.4 a.u.
2'F-ANA at 1 10 11 13 15: 51.7 a.u.
2'F-ANA at 4 7 9 11 12: 417 a.u.

Series 3 — method: protein binding microarray; form: double-stranded DNA, one strand shown; medium: in vitro; tested at: not given; reference: not given; reading: higher = stronger binding; endpoint: E-score
Target: Histone acetyltransferase KAT6A, both winged helices, GST fusion (KAT6A, Homo sapiens, UniProt Q92794, residues 1-181)
Setting: 8-mer, flanks averaged, mean of 2 arrays, mostly near background
Construct (chain): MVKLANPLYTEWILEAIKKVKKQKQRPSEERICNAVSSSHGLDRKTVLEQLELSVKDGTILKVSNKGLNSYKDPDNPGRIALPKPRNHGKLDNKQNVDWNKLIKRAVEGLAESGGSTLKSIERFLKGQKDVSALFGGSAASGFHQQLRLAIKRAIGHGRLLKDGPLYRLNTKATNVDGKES
ATTTAAAG: 0.00989
GACCCGAC: 0.0721
CTCGCAAG: 0.039
CATGGCGG: 0.194
CCTGAACC: -0.212
GGCCCAAC: -0.048
ATTTCTAC: -0.158
AAGGACCA: -0.156

Other studies, line by line
PhoQ, residues 284 288 289 292 302 303 NLGVHL  fold induction (PhoP, residues 12 14 15 18 19 LYHSL (Escherichia coli, UniProt P23836); Sort-seq, item: YFP reporter; E. coli; PhoQ-PhoP variant library, added: 10 µM Mg2+; reference: high Mg2+ state, higher = stronger signaling): 1.32
